{"data": "Experimental data collected from several papers", "note": "Each numbered part is a random draw from the data of one study; scales do not carry over between parts. Substitutions count along the parent as printed."}
{"data": "Block 1", "target": "ABI1, truncated, D143A, DHFR fusion (Arabidopsis thaliana, UniProt P49597)", "technique": "DHFR PCA, dose-response", "medium": "yeast", "notes": "Hill fit, mean, not affinity", "added": "(+)-ABA, dose series", "reading": "lower = more sensitive", "parent": "PYL1, truncated, DHFR fusion (Arabidopsis thaliana, UniProt Q8VZS8); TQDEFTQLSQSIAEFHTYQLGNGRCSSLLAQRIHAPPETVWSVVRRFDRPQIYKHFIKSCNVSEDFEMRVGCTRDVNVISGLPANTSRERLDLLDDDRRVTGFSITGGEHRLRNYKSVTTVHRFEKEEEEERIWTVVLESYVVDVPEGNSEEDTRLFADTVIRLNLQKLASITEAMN"}
{"Substitution": "F66T", "ABA EC50 [µM]": 6.26}
{"Substitution": "M68Y", "ABA EC50 [µM]": 6.9}
{"Substitution": "D48E", "ABA EC50 [µM]": 9.89}
{"Substitution": "S59Q", "ABA EC50 [µM]": 3.75}
{"Substitution": "A175R", "ABA EC50 [µM]": 1.49}
{"Substitution": "S63Y", "ABA EC50 [µM]": 11.8}
{"Substitution": "A35H", "ABA EC50 [µM]": 598}
{"Substitution": "T160R", "ABA EC50 [µM]": 22.2}
{"Substitution": "E64A", "ABA EC50 [µM]": 1.97}
{"Substitution": "Q51H", "ABA EC50 [µM]": 2.23}
{"Substitution": "R24W", "ABA EC50 [µM]": 57}
{"Substitution": "A13G", "ABA EC50 [µM]": 4.36}
{"Substitution": "D48A", "ABA EC50 [µM]": 63.1}
{"Substitution": "E151Q", "ABA EC50 [µM]": 4.74}
{"Substitution": "V121I", "ABA EC50 [µM]": 3.76}
{"Substitution": "E109N", "ABA EC50 [µM]": 2.56}
{"Substitution": "V40P", "ABA EC50 [µM]": 868}
{"data": "Block 2", "target": "CCNB3, cyclin fold, Cln2 fusion (human)", "technique": "yeast growth competition, sequencing", "medium": "yeast", "notes": "weak parent motif", "baseline": "not given", "reading": "higher = stronger binding", "parent": "LLGL2 docking peptide (human); KSLKKSLRQSFRR"}
{"Substitution": "KSLKKSLRQSFRA [R13A]", "normalised enrichment score": 0.449}
{"Substitution": "KSAKKSLRQSFRR [L3A]", "normalised enrichment score": -0.037}
{"Substitution": "KSLKKSLAQSFRR [R8A]", "normalised enrichment score": 0.127}
{"Substitution": "ASLKKSLRQSFRR [K1A]", "normalised enrichment score": 0.479}
{"Substitution": "KSLKKSLRQSFAR [R12A]", "normalised enrichment score": 0.598}
{"Substitution": "KSLKKALRQSFRR [S6A]", "normalised enrichment score": -0.0852}
{"data": "Block 3", "target": "RNA binding protein fox-1 homolog 2, RRM domain, GST-SBP tag (RBFOX2, Homo sapiens, UniProt O43251-10, residues 100-194)", "technique": "RNA Bind-n-Seq", "form": "RNA", "medium": "in vitro", "tested at": "365 nM", "notes": "natural RNA segment, single round, ends assumed", "baseline": "no-protein control", "reading": "higher = stronger binding", "all sequences stand within": "GGGAGUUCUACAGUCCGACGAUC … UGGAAUUCUCGGGUGCCAA", "Construct (chain)": "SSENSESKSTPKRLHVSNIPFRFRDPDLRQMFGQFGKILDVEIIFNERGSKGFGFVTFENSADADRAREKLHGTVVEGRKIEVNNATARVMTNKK"}
{"Oligonucleotide": "UCACUCCUAGGAGAGCCAACCUCGGCUUGUGGGCUGGUGCCCCACAGCUACCUGAGACGGGCAUCGCAGGAGUCUCUGCCACCCACUCAGGAUUGGGAAUUGUCUUUAGU", "RBNS enrichment (R)": 0.26}
{"Oligonucleotide": "GAGCUUGCAGUGAGCCGAGAUUGUGCCACUGCACUCCAGCCUGGGCAACAGAGCUAGACUCUGUGUCAAAAAUAAAUGACUAGAUAAAAAAAAAAAUUGUUUGAGUACAU", "RBNS enrichment (R)": 0.948}
{"Oligonucleotide": "GCAUUAGGAUCCUAUAACCAUGCCUGUCCCUGCUCUGUGUUUUAGGGAAGUGACAUAAAGUGAGGUCGCCCUUGCUAAGUCCUGCUGUCCUCUCUAGAGCCUUCCUCAGA", "RBNS enrichment (R)": 0.927}
{"Oligonucleotide": "GUUCCUUUGUAUACAAAUUUCAGCAGCUAGGAUAUGUCACCCUUCAGUACUACAAAGUACAGAAAUUCCUAGAAUAUAAUCAUUCUCACAGAAUAGAUACCAAGAAAAAG", "RBNS enrichment (R)": 0.523}
{"Oligonucleotide": "UACCCAGUCCUAUGCUGUAUCUCUGAUAGCCUAUAUAAAUGACAUAUAGGAAUAUUAUUUUCCAUAUGAUCUGUUGUAUGGUGUAUAUGCUAUGUGUUCAUUUCGUGUGC", "RBNS enrichment (R)": 1.8}
{"Oligonucleotide": "AUCCCCUUACAUUUCUAGCACACCUUGGCCAUCACAGUAGACAAAGAAUACAGAGAAGGCAGUGGGUUAGGCAGUGGGGGAUGGGUUUUUGGUUUUUUUUUUGUUUUUUU", "RBNS enrichment (R)": 1.59}
{"Oligonucleotide": "CCCUCCCCUUGUUACAGAUGGCGUAGAAGUCACAAGUCUGUUAAUUGGACUGUUGCUUCUUUGCCUGUUCCUGCUUUCUCUUUCUGUCUGGAUAGUCAGGAAAAGAUUUA", "RBNS enrichment (R)": 0.202}
{"Oligonucleotide": "CAGCUCUUAGAAAUUUCUCUUCUUCUACACUUGUUGCUCUCACCAGUGAAACGCUUUGUAAGGAGGCAUCUGGGUAAUUAUGCAAAUAAGUUUGUGAUAAUUGCUCCAGU", "RBNS enrichment (R)": 0.273}
{"Oligonucleotide": "AAAAUAUUUAAUUACCGGUUGUUAAAACUGGUUUAGCACAAUUUAUAUUUUCCCUCUCUUGCCUUUCUUAUUUGCAAUAAAAGGUAUUGAGCCAUUUUUUAAAUGACAUU", "RBNS enrichment (R)": 0.845}
{"Oligonucleotide": "CACCCUCCCUGGAACCACACCAGAAAGAGACCUGGGUUGUCGUUUUCUUGCUUUUUGUUUUGUUUUGUUUUAUUAUUUUCAUAUCACCUCCAUCCCAUAAAGUUGUACUG", "RBNS enrichment (R)": 0.394}
{"Oligonucleotide": "AAAGUUAACCUCAUAAUCUUGGAACUUGGGCUCCAACCCUUAUGAUUGUGGAGUGUUUACUAGAUACAUAAUGAGGUGCUAAGUUGUGGGGAAGUCUCAUGUAACUCAGA", "RBNS enrichment (R)": 0.507}
{"Oligonucleotide": "UCCUUCCAAAAUAUUGGCGUUUCUCUCCUACCGCGGUUAGACUGAAGACUGCCUUUCCUGGUAGGCCUGCCAGACAGAGCGCCCUUUACAAGACACACCUCAAGCUUUAC", "RBNS enrichment (R)": 0.549}
{"data": "Block 4", "target": "UBE2E2 UBC core domain (UniProt Q96LR5)", "technique": "yeast two-hybrid", "medium": "yeast", "notes": "mostly zero background", "baseline": "not given", "reading": "higher = stronger interaction", "B1": "RNF10 RING domain (UniProt Q8N5U6); chain VRICSHEVPSCPICLYPPTAAKITRCGHIFCWACILHYLSLSEKTWSKCPICYSSVHKKDLKS", "B2": "RNF115 RING domain (UniProt Q9Y4L5); chain TQEQVDMGLECPVCKEDYTVEEEVRQLPCNHFFHSSCIVPWLELHDTCPVCRKSLNGEDSTR", "B3": "UBE4B RING domain (UniProt O95155); chain KNARAEIDYSDAPDEFRDPLMDTLMTDPVRLPSGTIMDRSIILRHLLNSPTDPFNRQTLTESMLEPVPELKEQIQAWMREKQNSDH", "B4": "PJA2 RING domain (UniProt O43164); chain DHTAIGQEQCCPICCSEYIKDDIATELPCHHFFHKPCVSIWLQKSGTCPVCRRHFPPAVIEA", "B5": "TRIM28 RING domain (UniProt Q13263); chain GAEALELLEHCGVCRERLRPEREPRLLPCLHSACSACLGPAAPAAANSSGDGGAAGDGTVVDCPVCKQQCFSKDIVE", "B6": "CBLL1 RING domain (UniProt Q75N03); chain GEKDDTPVHFCDKCGLPIKIYGRMIPCKHVFCYDCAILHEKKGDKMCPGCSDPVQRIEQCT", "B7": "MDM2 RING domain (UniProt Q00987); chain TQDKEESVESSLPLNAIEPCVICQGRPKNGCIVHGKTGHLMACFTCAKKLKKRNKPCPVCRQPIQMIVLTYFP", "B8": "RNF130 RING domain (UniProt Q86XS8); chain DKETDPDFDHCAVCIESYKQNDVVRILPCKHVFHKSCVDPWLSEHCTCPMCKLNILKALGIV", "B9": "RFPL3 RING domain (UniProt O75679); chain MAALFQEASSCPVCSDYLEKPMSLECGCTVCLKCINSLQKEPHGEDLLCCCCSMVSQRNKIRP", "chain of UniProt Q96LR5 (whole entry, looked up)": "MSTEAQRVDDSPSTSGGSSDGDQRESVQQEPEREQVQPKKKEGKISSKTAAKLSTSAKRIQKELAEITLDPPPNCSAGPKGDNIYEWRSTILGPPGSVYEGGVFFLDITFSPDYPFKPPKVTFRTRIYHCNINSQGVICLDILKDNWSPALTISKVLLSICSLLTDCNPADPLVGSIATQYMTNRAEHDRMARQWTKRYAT"}
{"Molecule": "B1 (RNF10 RING domain)", "lacZ reporter activity": 0}
{"Molecule": "B2 (RNF115 RING domain)", "lacZ reporter activity": 0}
{"Molecule": "B3 (UBE4B RING domain)", "lacZ reporter activity": 0}
{"Molecule": "B4 (PJA2 RING domain)", "lacZ reporter activity": 0}
{"Molecule": "B5 (TRIM28 RING domain)", "lacZ reporter activity": 0}
{"Molecule": "VPADASPDSKCPICLDRFDNVSYLDRCLHKFCFRCVQEWSKNKAECPLCKQPFDSIFHSV (TOPORS RING domain (UniProt Q9NS56))", "lacZ reporter activity": 0}
{"Molecule": "B6 (CBLL1 RING domain)", "lacZ reporter activity": 0}
{"Molecule": "FLSKVEETFQCICCQELVFRPITTVCQHNVCKDCLDRSFRAQVFSCPACRYDLGRSYAMQ (UHRF1 RING domain (UniProt Q96T88))", "lacZ reporter activity": 0}
{"Molecule": "B7 (MDM2 RING domain)", "lacZ reporter activity": 0}
{"Molecule": "B8 (RNF130 RING domain)", "lacZ reporter activity": 0}
{"Molecule": "B9 (RFPL3 RING domain)", "lacZ reporter activity": 0}
{"Molecule": "PLRRLQEEKLCKICMDRHIAVVFIPCGHLVTCKQCAEAVDRCPMCSAVIDFKQRVF (BIRC8 RING domain (UniProt Q96P09))", "lacZ reporter activity": 0}
{"note": "Excerpt of the above (block 1):"}
{"Substitution": "R24W", "ABA EC50 [µM]": 57}
{"Substitution": "D48A", "ABA EC50 [µM]": 63.1}
{"Substitution": "V40P", "ABA EC50 [µM]": 868}
{"Substitution": "E109N", "ABA EC50 [µM]": 2.56}
